# Experimental data gathered from unrelated publications.
# Every numbered part comes from another study and shows a few of its results, in no order. Substitutions count along the parent as printed.

# Block 1 — technique: RNA Bind-n-Seq; molecule type: RNA; sample: in vitro; tested at: 365 nM; baseline: no-protein control; direction: higher = stronger binding
# Target: RNA binding protein fox-1 homolog 2, RRM domain, GST-SBP tag (RBFOX2, Homo sapiens, UniProt O43251-10, residues 100-194)
# Setting: natural RNA segment, single round, ends assumed
# Constant ends, left off below: GGGAGUUCUACAGUCCGACGAUC … UGGAAUUCUCGGGUGCCAA
# Residues (chain): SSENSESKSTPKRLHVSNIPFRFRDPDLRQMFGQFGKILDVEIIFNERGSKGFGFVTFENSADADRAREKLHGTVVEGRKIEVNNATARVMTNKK
Oligonucleotide,RBNS enrichment (R)
UGCUUUUUUAUAAGAGUUGUCAUUGUUGGAAAUUCUUAAAUAAAACUGAUUUAAAUAAUAUGUGUCUUUGUUUUGCAGCCCUGAAUGCAAAGAAUUCAUAGCAGUUAAUU,0.774
GAGCAAACAAAUUUGAUUAUUUUUUCAUUGUUAAAUAGGCAACAUGACCAGAAAGGAUGGAAUGGCUUAAGUAAACUAAGGGUUCACUUCUAGAGCUGAGAAGCAGGGUC,0.457
GCUACAGUUCCCAGCUGCUGUAACAGAGCCACCUCCACCUCUAACAAUAAACCAAGUUCAUUGCAGAUGGUGUGGUGCUGCCUAGGCUUUCCAAGGCUCCUCCAGACAGU,0.218
CUAUACAUGUAAAGACACAGUGGCUCUGUGUGUCAUCAAGCAGCUGUAUUUUAUGUAUGCUUUACUGGUAAGUGUGCCAAUAAUAAACUGUGUUAAUGACCAAAGUAAGU,0.49
CCUUCCCACUGACUUACACUCGUCUAUCUAGAAUACAGGUUGUCCAGGCAGCUGGUCACUUACCAGGUGUGGACUUACGUUGCUGGGCUUGCAAAUGAAUUGCUAGUCCC,0.315
CCAUUCUCACAGAACCUCAAAGACUUGGUUCCAGGCUCUCCAGAGACCAUACCCAACUCAUGUGCAUGUGCCGUUUUUGCUUCAAGCUCAGUAGCAGGACCUGCCCCGAG,3.24
UCCUGCUUUUACUUUUGUCAUUUUCUUGAUAAUCGUAAGCCUUGAGAGUGUUUGUGAAAAAGUUUUAUUUCCUGUUAUGUAUACAUAAUUAAAUGAAAAUUCUUCAGAAA,0.259
GCCUUUCCCUGCAGGAUGAGUGAAGACGUUUGCCUCUCACAGUGUGUCUUCUACCUGCAUUUUGGCAUCAGAGCCCCCCAGCCCACCCACCACAGGCAAUUACUAGCCCU,0.402

# Block 2 — target: CCNB1, cyclin fold, Cln2 fusion (human); technique: yeast growth competition, sequencing; sample: yeast; setting: weak parent motif; baseline: not given; direction: higher = stronger binding
# Starting sequence: CDC6 docking peptide (human); TLKGRRLVFDNQL
Variant,normalised enrichment score
SLKGRRLVFDNQL [T1S],0.292
TLKGRRLVFDNQC [L13C],0.18
TLKGSRLVFDNQL [R5S],-0.00176
TLKGRRLVFTNQL [D10T],-0.366
TLKGRRLVFDNQH [L13H],-0.255
TLKGRRLVFDNQF [L13F],0.559
TLKGRRLVFINQL [D10I],0.772
TLKGRRLVFDNQY [L13Y],0.196
TLKGRRLVFDNQG [L13G],0.203
TLKGCRLVFDNQL [R5C],0.363
TLKIRRLVFDNQL [G4I],0.494
TLKGRRLWFDNQL [V8W],0.912
TLKGRRLVFGNQL [D10G],-1.14
TLKGRRLVGDNQL [F9G],0.0744
TLKARRLVFDNQL [G4A],0.408
TLKGRRLVWDNQL [F9W],1.01
TLKGRRLVFDLQL [N11L],0.374
TLKGRRLVFDNQP [L13P],0.745
TLKGRRLVFDPQL [N11P],0.676
TLKGRRLVFDVQL [N11V],0.536
TLKGQRLVFDNQL [R5Q],-0.737
MLKGRRLVFDNQL [T1M],0.322
TLKGRRLVSDNQL [F9S],1.03
TLKGFRLVFDNQL [R5F],-0.195
TLKGRRLVFDNEL [Q12E],-0.528

# Block 3 — target: BATF2, bZIP domain (human); technique: DHFR protein complementation; sample: yeast; baseline: wild-type JUN-FOS pair; direction: higher = stronger binding
# Setting: single substitutions, most at no-binding floor
# Starting sequence: JUN, bZIP domain (human); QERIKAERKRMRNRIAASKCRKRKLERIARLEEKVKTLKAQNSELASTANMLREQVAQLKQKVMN; partner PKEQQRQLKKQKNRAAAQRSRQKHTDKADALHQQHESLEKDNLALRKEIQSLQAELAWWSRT
Variant,binding fitness [natural log]
Q41H,-0.595
V56Q,-1.29
E54S,-0.524
L31S,-1.04
E32V,-0.512
T37Q,-0.0849
A46I,-0.31
A57S,-0.425
S47Y,-0.331
A49E,-1.13
Q55N,-0.767
K34E,-0.33
S43D,-0.174
K34I,-0.581
A46V,-0.305
N42K,-0.594
E32I,-0.717
T48L,-0.232
R53H,-1.01
M51S,-0.226
L45T,-1.47
I28S,-0.705
T37L,-0.135
N42H,-0.617
A40R,-0.241

# Block 4 — technique: universal PBM; molecule type: double-stranded DNA, one strand shown; sample: in vitro; tested at: 600 nM; direction: higher = stronger binding
# Target: Sal-like protein 4, full length isoform A (SALL4, Homo sapiens, UniProt Q9UJQ4, residues 1-1053)
# Chain of UniProt Q9UJQ4 (whole entry, looked up): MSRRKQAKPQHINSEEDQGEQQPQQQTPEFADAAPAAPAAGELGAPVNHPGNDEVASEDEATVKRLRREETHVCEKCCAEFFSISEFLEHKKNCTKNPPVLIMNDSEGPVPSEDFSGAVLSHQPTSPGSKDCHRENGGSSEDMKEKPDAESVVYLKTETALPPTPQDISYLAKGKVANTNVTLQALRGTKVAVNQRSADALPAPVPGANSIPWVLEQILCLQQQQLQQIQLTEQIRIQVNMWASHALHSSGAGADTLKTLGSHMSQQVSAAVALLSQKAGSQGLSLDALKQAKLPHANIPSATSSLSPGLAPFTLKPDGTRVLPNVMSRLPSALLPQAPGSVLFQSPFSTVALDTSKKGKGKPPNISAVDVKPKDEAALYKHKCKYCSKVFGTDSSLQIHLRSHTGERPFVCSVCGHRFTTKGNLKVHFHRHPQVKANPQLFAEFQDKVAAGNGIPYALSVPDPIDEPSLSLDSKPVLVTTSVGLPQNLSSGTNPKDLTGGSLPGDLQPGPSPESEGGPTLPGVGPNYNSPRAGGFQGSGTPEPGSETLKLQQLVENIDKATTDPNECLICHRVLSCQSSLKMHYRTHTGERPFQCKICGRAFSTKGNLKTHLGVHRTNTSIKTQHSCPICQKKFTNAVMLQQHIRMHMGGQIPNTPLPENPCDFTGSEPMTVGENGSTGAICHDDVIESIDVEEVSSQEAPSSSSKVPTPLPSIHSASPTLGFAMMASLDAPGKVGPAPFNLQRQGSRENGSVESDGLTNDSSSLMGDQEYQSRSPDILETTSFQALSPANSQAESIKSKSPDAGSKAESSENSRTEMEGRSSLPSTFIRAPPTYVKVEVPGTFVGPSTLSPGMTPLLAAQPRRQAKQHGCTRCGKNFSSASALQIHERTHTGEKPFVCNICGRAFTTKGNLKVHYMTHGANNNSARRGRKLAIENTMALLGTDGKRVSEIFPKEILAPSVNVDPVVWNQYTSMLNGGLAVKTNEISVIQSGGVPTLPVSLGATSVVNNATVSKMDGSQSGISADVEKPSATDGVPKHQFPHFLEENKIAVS
# Setting: 8-mer, flanks averaged, mean of replicates
Oligonucleotide,E-score
AACGACCC,-0.254
ACCCGGGT,-0.284
ATCGGCAG,-0.118
GCCGGGAC,-0.288
CGCTCCCC,-0.392
CCACAAGC,-0.242
GCAAAGAA,0.0965
CAAAAACC,0.0505
CCTATTCG,-0.0686
CCAACTTA,0.0126
AAACTAAA,0.226
ACAAAACC,0.0597
CCTTATTC,0.159
TGCAGCCA,-0.204
AACTCAAC,0.037
ACAGCTTG,-0.133
ATCCGCCA,-0.158
ACGATCGG,-0.029

# Block 5 — technique: DHFR PCA, deep sequencing; sample: yeast; with: (+)-ABA 17 µM; baseline: wild-type fitted maximum; direction: higher = stronger binding
# Target: ABI1, truncated, D143A, DHFR fusion (Arabidopsis thaliana)
# Setting: methotrexate growth selection, single substitutions
# Starting sequence: PYL1, truncated, DHFR fusion (Arabidopsis thaliana); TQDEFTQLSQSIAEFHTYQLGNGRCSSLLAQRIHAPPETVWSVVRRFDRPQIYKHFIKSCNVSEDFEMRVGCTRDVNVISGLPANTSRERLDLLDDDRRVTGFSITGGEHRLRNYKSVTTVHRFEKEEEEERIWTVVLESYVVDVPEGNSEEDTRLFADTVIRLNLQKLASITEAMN; partner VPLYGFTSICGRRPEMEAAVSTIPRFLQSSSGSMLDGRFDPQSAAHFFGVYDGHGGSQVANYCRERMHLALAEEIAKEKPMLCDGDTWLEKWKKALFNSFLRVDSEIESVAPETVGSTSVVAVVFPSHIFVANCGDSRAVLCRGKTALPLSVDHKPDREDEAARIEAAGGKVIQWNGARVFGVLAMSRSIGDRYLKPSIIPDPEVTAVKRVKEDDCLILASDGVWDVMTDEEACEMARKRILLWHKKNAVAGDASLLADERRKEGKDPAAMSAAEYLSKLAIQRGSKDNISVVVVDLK
Variant,relative binding score [%]
R74D,-16.5
E139N,67
F15G,-1.7
D92I,29.1
F66N,58.3
F56L,76.3
D3Q,76.7
K58S,76.4
V44R,10.5
T101K,1.52
R111F,12.9
Q2S,83.6
Q7C,82.1
Q10V,73.7
R163H,49.9
S117N,19
T101G,-3.83
N114E,15.8

# Block 6 — technique: protein binding microarray; molecule type: double-stranded DNA, one strand shown; sample: in vitro; tested at: not given; baseline: not given; direction: higher = stronger binding
# Target: Histone acetyltransferase KAT6A, winged helix 1, GST fusion (KAT6A, Homo sapiens, UniProt Q92794, residues 1-85)
# Setting: 8-mer, flanks averaged, mean of 2 arrays, mostly near background
# Target sequence (chain): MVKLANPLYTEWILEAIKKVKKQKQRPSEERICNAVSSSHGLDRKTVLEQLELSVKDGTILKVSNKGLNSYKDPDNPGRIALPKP
Oligonucleotide,E-score
AAAACTGA,-0.178
AGTCGGAA,0.155
AGACGGAG,-0.0133
GACCGATC,0.114
TCGGGGAA,-0.0156
AAACTCTG,-0.212
ACGGCAAT,0.347
ACGAGGAA,-0.119
GCCTTTCA,0.0312
AGACTAAG,-0.154
GGGCAAAC,0.0851
GTGATGGA,-0.208
TCATAGGA,-0.218
GTCTCAAC,-0.11
ACCAGCGT,-0.111
GCTACTAC,0.114
GCTTAGCC,0.186
ATTATGAC,-0.0619
ATACTAAC,-0.0221
GGGCATAC,0.0137
ACCGGCCA,0.0877
TCATACGA,-0.0973

# Some of these lines once more (block 5):
Variant,relative binding score [%]
R74D,-16.5
E139N,67
F15G,-1.7
D92I,29.1
F66N,58.3
F56L,76.3
D3Q,76.7
K58S,76.4
V44R,10.5
T101K,1.52
R111F,12.9
Q2S,83.6
Q7C,82.1
Q10V,73.7
R163H,49.9
S117N,19
T101G,-3.83
N114E,15.8
